{"data": "Published values pooled from the literature", "note": "Parts stem from different laboratories: compare values within a part only. Substitutions count along the parent as printed."}
{"data": "Series 1", "target": "ABI1, truncated, D143A, DHFR fusion (Arabidopsis thaliana)", "technique": "DHFR PCA, deep sequencing", "medium": "yeast", "setting": "methotrexate growth selection, single substitutions", "with": "(+)-ABA 0.11 µM", "reference": "wild-type fitted maximum", "reading": "higher = stronger binding", "parent": "PYL1, truncated, DHFR fusion (Arabidopsis thaliana); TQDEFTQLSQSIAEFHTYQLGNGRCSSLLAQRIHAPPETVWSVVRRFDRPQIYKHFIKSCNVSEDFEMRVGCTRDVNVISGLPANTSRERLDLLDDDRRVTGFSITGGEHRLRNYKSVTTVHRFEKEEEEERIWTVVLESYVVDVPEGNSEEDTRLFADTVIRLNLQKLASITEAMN; partner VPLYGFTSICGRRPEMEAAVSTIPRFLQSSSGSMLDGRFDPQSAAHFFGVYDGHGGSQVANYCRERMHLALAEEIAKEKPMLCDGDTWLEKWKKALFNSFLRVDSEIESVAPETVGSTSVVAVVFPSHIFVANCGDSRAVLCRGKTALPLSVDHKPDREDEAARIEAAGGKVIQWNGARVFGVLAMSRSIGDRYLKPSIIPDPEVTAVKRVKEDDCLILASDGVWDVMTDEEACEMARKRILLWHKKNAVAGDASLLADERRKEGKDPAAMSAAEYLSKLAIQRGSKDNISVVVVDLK"}
{"Variant": "S87P", "relative binding score": "11.9%"}
{"Variant": "S26A", "relative binding score": "20.1%"}
{"Variant": "A13H", "relative binding score": "21.8%"}
{"Variant": "Y18M", "relative binding score": "-3.43%"}
{"Variant": "Q2P", "relative binding score": "67.7%"}
{"Variant": "R90A", "relative binding score": "-3.29%"}
{"Variant": "H55A", "relative binding score": "43.1%"}
{"Variant": "E38A", "relative binding score": "1.4%"}
{"Variant": "E4F", "relative binding score": "17.4%"}
{"data": "Series 2", "target": "RING finger protein unkempt homolog, zinc fingers 1-6, GST-SBP tag (UNK, Homo sapiens, UniProt Q9C0B0, residues 30-357)", "technique": "RNA Bind-n-Seq", "form": "RNA", "medium": "in vitro", "tested at": "not given", "setting": "RNA with constant flanks, human-mouse chimeric sites, ends assumed", "reference": "input RNA pool", "reading": "higher = stronger binding", "constant ends, left off below": "GGGAGUUCUACAGUCCGACGAUC … CAACAGAGGAUUGAGCAUCA", "Residues (chain)": "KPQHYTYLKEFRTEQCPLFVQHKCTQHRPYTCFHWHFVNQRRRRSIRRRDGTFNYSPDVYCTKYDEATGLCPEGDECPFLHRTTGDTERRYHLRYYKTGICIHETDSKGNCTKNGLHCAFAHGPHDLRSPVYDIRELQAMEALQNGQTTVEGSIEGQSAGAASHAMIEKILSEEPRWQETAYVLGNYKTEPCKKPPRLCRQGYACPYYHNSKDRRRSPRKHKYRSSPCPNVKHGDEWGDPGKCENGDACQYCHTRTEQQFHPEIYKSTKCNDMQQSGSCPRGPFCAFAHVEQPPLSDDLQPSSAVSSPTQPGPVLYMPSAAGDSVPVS"}
{"Oligonucleotide": "CGCUUGGAUGAGGCGGGUGUCACAGAUGAAGUGCUAGAUUCUGCCAUGCAAGCCUUCCUUCUGGAGGUCAUUGUUAAGCAUGGGGAGCCGGCACCUUAUUUAUGUAAUAAAGAUCCUUUU", "bound/input enrichment [ratio]": 0.094}
{"Oligonucleotide": "GGUGGGGUGGUCAUUGCCGUUUGAGCUGCUGAUUUUCAUGAGUCGCCUUCAAAACUCUCGUGUAGGGUUGACACUGUAAGGGGUGGGGGGAUCCAGCUUAUUCUUUUAUUUUCAAGUCCA", "bound/input enrichment [ratio]": 0.532}
{"Oligonucleotide": "UUAAUCCCCUUUACUGCUCCACCACUGCUCAUGGUAAUGACAAAAACUUAUAUCCCCGUCCUAGCUUUCACUCAGAUGGCUUAUGGAGCCGGUUUCCUAGCUUUCUUGGGAGGGAUCAGA", "bound/input enrichment [ratio]": 0.268}
{"Oligonucleotide": "GGCCUGGGACCGUCCUGGGCUAGUACAAAUAGCGGCAGUGGAGGCUCAGAGGAAAGUUUUGUUAGUGAGGCAGUGGUUAGAGGCCGUCAUGUACGGUCCUUUACUCGAUAGAUGUGUUCU", "bound/input enrichment [ratio]": 0.675}
{"Oligonucleotide": "CUCAGAGAUGUGGCAUAUCAGUAUGUGAAAAAGGGGGCUCGAAUUUAUGUGGAAGGGAAAGUGGACUAUGGCGAGUACAUGGAUAAAAAUAAUGUGAGGCGGCAAGCAACAACAAUCAUA", "bound/input enrichment [ratio]": 0.373}
{"Oligonucleotide": "GUAGCUGGCCAUUAGGAAAUGCUGGUAAUUUCAGUCAGUGAGUCGUGACUUCUGAUGUCCCAGCAAAUGUUGGCAUUGUUGACUGCUGAGAAGAUACUUCUGAGGACCCACGUCUAAGGU", "bound/input enrichment [ratio]": 0.234}
{"Oligonucleotide": "UCCUUGGACCCCAGUCAUAUAGGUGACCUGCAGAAAGCAGACACCAGUAGUCAAGGUGCUUUAGUGUUUCUCUCAAAGGACUACGAAAUAGAAAAUCAAAAUCCUCUGGCCUCUCCUACG", "bound/input enrichment [ratio]": 2.24}
{"Oligonucleotide": "CUGGGUAUCAUCUCUCGUGCUGUUAGACACCUGUUCAAGAGUAUUGAAGAAAAAAAAACCUCAGCGAUUAAAAACGGGCUGCCCCCUCCUGAAUUCAAAGUGAAUGCCCAGUUCCUAGAG", "bound/input enrichment [ratio]": 0.617}
{"Oligonucleotide": "GGAAGUACAUUAAUGGAGAUUGAUGGUGACAAAGGCAAGCAGGGCGGGCCCACCUACUACAUAGACACCAAUGCCCUCCGCGUGCCCAGGGAGAACAUGGAGGCCAUUUCACCUCUAAAG", "bound/input enrichment [ratio]": 0.252}
{"Oligonucleotide": "AACUUUGUGCAUCGGUUUCCCUUUGUAGCUGUUUCAAUUGGCUUCCUUGUGAAUAAAGAGAUGGAGUUUGGAAUUGUGUACAGCUGUGUGGAAGAUAAGAUGUACACUGCCAGAAAAGGG", "bound/input enrichment [ratio]": 0.319}
{"Oligonucleotide": "AGCACAACCCCAGCAAAGCUCAGGAACCCUUGUACAAGUGAACAAAACUGCACCAGCCCAUUUAGCUACAAAAAUGUGCUUAGUCUUACUGACAGAGGAGAAGUAUUCAAUGAACUUGUU", "bound/input enrichment [ratio]": 0.694}
{"data": "Series 3", "target": "CCNA2, cyclin fold, Cln2 fusion (human)", "technique": "yeast growth competition, sequencing", "medium": "yeast", "setting": "strong parent motif", "reference": "not given", "reading": "higher = stronger binding", "parent": "ORC1 docking peptide (human); PRARKRLELGNLG; partner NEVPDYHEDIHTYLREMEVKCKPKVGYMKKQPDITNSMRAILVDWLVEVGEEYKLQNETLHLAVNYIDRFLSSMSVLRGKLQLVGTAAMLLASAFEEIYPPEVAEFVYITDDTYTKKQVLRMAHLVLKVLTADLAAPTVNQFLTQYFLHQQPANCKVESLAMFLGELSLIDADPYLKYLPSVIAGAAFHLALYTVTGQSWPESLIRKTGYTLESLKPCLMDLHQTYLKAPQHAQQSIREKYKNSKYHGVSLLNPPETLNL"}
{"Variant": "G10K", "normalised enrichment score": 2.93}
{"Variant": "L12E", "normalised enrichment score": 5.52}
{"Variant": "G13D", "normalised enrichment score": 5.95}
{"Variant": "R6F", "normalised enrichment score": 2.43}
{"Variant": "G10H", "normalised enrichment score": 5.02}
{"Variant": "G10L", "normalised enrichment score": 2.77}
{"Variant": "G13F", "normalised enrichment score": 4.26}
{"Variant": "E8V", "normalised enrichment score": 4.67}
{"Variant": "P1N", "normalised enrichment score": 4.86}
{"Variant": "G13Y", "normalised enrichment score": 4.14}
{"Variant": "E8N", "normalised enrichment score": 4.89}
{"Variant": "L12V", "normalised enrichment score": 5.36}
{"Variant": "G10P", "normalised enrichment score": 2.65}
{"Variant": "P1V", "normalised enrichment score": 3.34}
{"data": "Further values, each from its own experiment"}
{"Substance": "PhoQ, residues 284 288 289 292 302 303 TAVSDG", "target": "PhoP, residues 12 14 15 18 19 MHTVL (Escherichia coli, UniProt P23836)", "test": "Sort-seq, item: YFP reporter", "test system": "E. coli", "setting": "PhoQ-PhoP variant library, with: 10 µM Mg2+", "how to read": "reference: high Mg2+ state, higher = stronger signaling", "measurement": "fold induction", "result": 13}
{"note": "A few entries again (series 3):"}
{"Variant": "R6F", "normalised enrichment score": 2.43}
{"Variant": "G13Y", "normalised enrichment score": 4.14}
{"Variant": "P1N", "normalised enrichment score": 4.86}
{"Variant": "G10L", "normalised enrichment score": 2.77}
{"Variant": "E8N", "normalised enrichment score": 4.89}
